{"data": "Measured values pooled from the literature", "target": "Casein kinase II subunit alpha' (CSNK2A2, Homo sapiens, UniProt P19784)"}
{"SMILES": "COc1cc(Nc2nc(C)cc(-c3cnn4nc(OC)ccc34)n2)cc(C(F)(F)F)c1", "test": "inhibitor", "conditions": "1 µM", "how to read": "reference: control", "quantity": "remaining activity", "result": "59%"}
{"SMILES": "O=C(O)CCC(=O)c1cccc(NS(=O)(=O)c2c[nH]c3ncccc23)c1", "test": "kinase activity, radiometric", "conditions": "10 µM", "quantity": "remaining activity", "result": "112%"}
{"SMILES": "COc1c(OCCCN2CCOCC2)ccc2c1N=C(NC(=O)c1cnc(N)nc1)N1CCN=C21", "test": "kinase activity, inhibitor", "conditions": "1 µM", "how to read": "reference: untreated control", "quantity": "remaining activity", "result": "109%"}
{"SMILES": "CN1CCN(Cc2ccc(-c3ccc(CO[C@H]4CCC[C@@H]4NC(=O)c4cc(-c5cnn(C)c5)cnc4N)cc3)cc2)CC1", "test": "enzyme activity, inhibitor", "conditions": "0.1 µM", "quantity": "inhibition", "result": "9%"}
{"SMILES": "NC(=O)[C@@H](O)C[C@H]1CCc2sc3ncnc(O[C@H]4CC[C@H](N5CCOCC5)CC4)c3c21", "test": "enzyme activity, inhibitor", "conditions": "10 µM", "quantity": "inhibition", "result": "24%"}
{"SMILES": "Nc1ncc2c(n1)-c1c([nH]c3ccc(C4=CCOCC4)cc13)CCC2", "test": "binding, competition with immobilised ligand", "conditions": "1 µM", "quantity": "remaining binding", "result": "56%"}
{"SMILES": "CCN1CCN(Cc2ccc(C(=O)Nc3ccc(C)c(NCc4cnc5[nH]ccc5c4OC)c3)cc2C(F)(F)F)CC1", "test": "binding, competition with immobilised ligand", "conditions": "1 µM", "quantity": "remaining binding", "result": "69%"}
{"SMILES": "COC(=O)[C@@]1(C)C=C(C(=O)Nc2cccc(C(=O)Nc3ccc(Nc4nccc(-c5cccnc5)n4)c(C)c3)c2)C(=O)CC1", "test": "enzyme activity, inhibitor, radiometric", "conditions": "1 µM", "quantity": "remaining activity", "result": "99%"}
{"SMILES": "CCn1cc(C(=O)O)c(=O)c2c(N)c(F)c(NC3CCCCC3)cc21", "test": "kinase activity", "conditions": "0.1 µM, with: ATP at Km", "quantity": "inhibition", "result": "-5.1%"}
{"SMILES": "C=CC(=O)N1CCCC(n2c(=O)c3ncccc3n(Cc3ccc(Oc4ccccc4)cc3)c2=O)C1 (stereo not shown)", "test": "cell-free assay, competition with immobilised ligand", "conditions": "1 µM", "quantity": "remaining binding", "result": "100%"}
{"SMILES": "Nc1ncc(-c2cc(-c3cnn(CC(F)(F)F)c3)ncc2F)nc1C(=O)NC1CNCC(F)C1 (stereo not shown)", "test": "enzyme activity", "conditions": "1 µM", "how to read": "reference: DMSO control", "quantity": "remaining activity", "result": "91.2%"}
{"SMILES": "CC(C)=CC1OC(C)(C)C2C=C3C(=O)C(Cl)=CC(O)C3C3C(O)C4OC4C(=O)C132 (stereo not shown)", "test": "cell-free assay, competition with immobilised ligand", "conditions": "10 µM", "quantity": "remaining binding", "result": "92%"}
{"SMILES": "CNC1C[S+]2CC[S+]3CC[S+](C1)[Ru-4]321([N]=C=S)[n]2c3ccc(OC)cc3c3c4c(c5cc(F)c[n+]1c5c32)C(=O)NC4=O (stereo not shown)", "test": "KinomeScan", "conditions": "0.1 µM", "how to read": "reference: untreated", "quantity": "remaining binding", "result": "78%"}
